Assay results from different studies.
Lines come from different studies, so protocols differ. “And” joins repeats or separate records; there may be more than shown. Numbers after ± are the reported error.

SMILES = CCc1nn(C)c2nc(-c3ccc(C(=O)O)cc3)nc(NCc3ccccc3)c12; test system = NSG mice; setting = dose not given, day 4; endpoint = body weight; value = 23.3 g and 20.6 g and 20.8 g and 22.2 g
SMILES = O=C1NC2(CC2)COc2ncc(F)cc2[C@H]2COCCN2c2ccn3ncc1c3n2; test system = Sprague-Dawley rat, female, blood; setting = oral, 5 mg/kg/day, 4 weeks, end of treatment, subacute toxicity; endpoint = mean corpuscular volume; value = 64.1 ± 3.3 fL
SMILES = CC(C)C[C@@H](NC(=O)[C@@H](CCCNC(=N)N)NC(=O)[C@@H](Cc1c[nH]cn1)NC(=O)[C@@H](Cc1c[nH]c2ccccc12)NC(=O)[C@@H](Cc1c[nH]cn1)NC(=O)[C@@H](Cc1ccccc1)NC(=O)[C@H](NC(=O)[C@@H](Cc1ccc(O)cc1)NC(=O)CNC(=O)CNC(=O)CCOCCOCCOCCNC(=O)CN1CCN(CC(=O)O)CCN(CC(=O)O)CC1)[C@H](C)O)C(=O)N[C@H](CC(N)=O)C(=O)N1CCC[C@@H]1C(=O)O [gallium-68 labelled]; assay = OLINDA/EXM; test system = adult male human, stomach wall; setting = extrapolated from C57BL/6 mice; endpoint = organ absorbed dose; value = 0.00988 ± 0.000151 mSv/MBq
SMILES = CSCC[C@H](N)C(=O)N[C@@H](C)C(=O)N[C@@H](Cc1c[nH]c2ccccc12)C(=O)N[C@@H](Cc1c[nH]cn1)C(=O)N[C@@H](CC(=O)O)C(=O)N[C@@H](CC(=O)O)C(=O)N[C@@H](CCC(=O)O)C(=O)N[C@@H](CCC(=O)O)C(=O)N[C@@H](Cc1ccccc1)C(=O)N[C@@H](C)C(=O)N[C@@H](CCCNC(=N)N)C(=O)N[C@@H](CCCNC(=N)N)C(=O)N[C@@H](CCCNC(=N)N)C(=O)N[C@@H](CCCNC(=N)N)C(=O)NCCCCCC(=O)NCCCCC(NC(=O)CCCCCNC(=O)[C@H](CCCNC(=N)N)NC(=O)[C@H](CCCNC(=N)N)NC(=O)[C@H](CCCNC(=N)N)NC(=O)[C@H](CCCNC(=N)N)NC(=O)[C@H](C)NC(=O)[C@H](Cc1ccccc1)NC(=O)[C@H](CCC(=O)O)NC(=O)[C@H](CCC(=O)O)NC(=O)[C@H](CC(=O)O)NC(=O)[C@H](CC(=O)O)NC(=O)[C@H](Cc1c[nH]cn1)NC(=O)[C@H](Cc1c[nH]c2ccccc12)NC(=O)[C@H](C)NC(=O)[C@@H](N)CCSC)C(=O)NCCCCC(NC(=O)C(CCCCNC(=O)CCCCCNC(=O)[C@H](CCCNC(=N)N)NC(=O)[C@H](CCCNC(=N)N)NC(=O)[C@H](CCCNC(=N)N)NC(=O)[C@H](CCCNC(=N)N)NC(=O)[C@H](C)NC(=O)[C@H](Cc1ccccc1)NC(=O)[C@H](CCC(=O)O)NC(=O)[C@H](CCC(=O)O)NC(=O)[C@H](CC(=O)O)NC(=O)[C@H](CC(=O)O)NC(=O)[C@H](Cc1c[nH]cn1)NC(=O)[C@H](Cc1c[nH]c2ccccc12)NC(=O)[C@H](C)NC(=O)[C@@H](N)CCSC)NC(=O)CCCCCNC(=O)[C@H](CCCNC(=N)N)NC(=O)[C@H](CCCNC(=N)N)NC(=O)[C@H](CCCNC(=N)N)NC(=O)[C@H](CCCNC(=N)N)NC(=O)[C@H](C)NC(=O)[C@H](Cc1ccccc1)NC(=O)[C@H](CCC(=O)O)NC(=O)[C@H](CCC(=O)O)NC(=O)[C@H](CC(=O)O)NC(=O)[C@H](CC(=O)O)NC(=O)[C@H](Cc1c[nH]cn1)NC(=O)[C@H](Cc1c[nH]c2ccccc12)NC(=O)[C@H](C)NC(=O)[C@@H](N)CCSC)C(N)=O (some centres unmarked); test system = C57BL/6 mouse female, stomach; setting = dose not given, 6 h; how to read = relative to: total; endpoint = tissue distribution; value = 26% and 20.6% and 31.4%
SMILES = C[C@H](O)[C@@H](NC(=O)[C@H]1CCCN1C(=O)[C@@H](CCCCN)NC(=O)[C@@H](CO)NC(=O)[C@@H](Cc1ccc(O)cc1)NC(=O)[C@@H](CC(N)=O)NC(=O)CCOCCOCCOCCNC(=O)CN1CCN(CC(=O)O)CCN(CC(=O)O)CCN(CC(=O)O)CC1)C(=O)N[C@H](CC(=O)O)C(=O)N[C@H](CCCNC(=N)N)C(=O)N[C@H](CCC(N)=O)C(=O)N[C@H](Cc1ccc(O)cc1)C(=O)N[C@H](Cc1c[nH]cn1)C(=O)N[C@H](Cc1ccccc1)C(N)=O [copper-64 labelled]; assay = ex vivo gamma counting; test system = C57BL/6J mouse, male, normal, testis; setting = intravenous, 1.85 MBq, 80 min; endpoint = tissue uptake; value = 0.14 ± 0.05 %ID/g
SMILES = CC(C)=CCC/C(C)=C\CCn1cc(CC(P(=O)(O)O)P(=O)(O)O)nn1; test system = CD-1 mouse, plasma; setting = intravenous, 0.5 mg/kg, single dose; endpoint = AUC(0-t); value = 446 ± 26 ng·h/mL
SMILES = CC[C@H](C)[C@H](NC(=O)[C@@H](NC(=O)c1cccc(Cl)c1Cl)C(C)(C)C)C(=O)N[C@H](C(=O)N[C@H](C(=O)N[C@H](C(=O)N[C@@H](CCC(N)=O)C(=O)N[C@@H](Cc1c[nH]cn1)C(=O)N[C@H](CC(C)C)C(=O)N[C@@H](CO)C(=O)NCCC(=O)N[C@@H](CCCCNC(=O)CC[C@@H]1NC(=O)[C@@H](CCCNC(=N)N)NC(=O)[C@H](CCCNC(=N)N)NC(=O)[C@@H](CCCNC(=N)N)NC(=O)[C@H](CCCNC(=N)N)NC(=O)[C@H](Cc2ccc3ccccc3c2)NC(=O)[C@@H](Cc2ccccc2)NC1=O)C(N)=O)[C@@H](C)O)[C@@H](C)CC)C(C)(C)C; assay = turbidity; test system = PBS with 5% DMSO; setting = 1 h, pH 7.4, up to 100 µM tested; endpoint = aqueous solubility; value = ≥ 100 µM
SMILES = CC(CCC(=O)NCC(=O)O)C1CCC2C3C(O)CC4CC(OC5OC(C(=O)O)C(O)C(O)C5O)CCC4(C)C3CCC12C (centres unmarked); test system = human women; setting = dose not given, SLCO1B1 *14/*14; endpoint = plasma concentration; value = 4.44 ng/mL
SMILES = CC[C@H](C)[C@H](NC(=O)[C@H](CCCCN)NC(=O)CNC(=O)[C@H](CC(C)C)NC(=O)[C@H](Cc1ccccc1)NC(=O)[C@H](CCCCN)NC(=O)[C@H](CO)NC(=O)[C@H](Cc1ccccc1)NC(=O)[C@H](Cc1c[nH]c2ccccc12)NC(=O)[C@H](CCC(N)=O)NC(=O)[C@@H](NC(=O)[C@H](Cc1ccccc1)NC(=O)CCCCCNC(=O)CN1CCN(CC(=O)O)CCN(CC(=O)O)CCN(CC(=O)O)CC1)C(C)C)C(=O)N[C@@H](CCC(=O)O)C(=O)N1CCC[C@H]1C(=O)N[C@@H](CC(=O)O)C(=O)N[C@H](C(=O)N[C@@H](CO)C(=O)N[C@@H](CCC(N)=O)C(=O)N[C@H](C(=O)N[C@@H](CCC(N)=O)C(=O)N[C@@H](CC(=O)O)C(=O)N1CCC[C@H]1C(=O)N[C@@H](CC(N)=O)C(=O)N[C@@H](CC(=O)O)C(=O)N[C@@H](CCC(N)=O)C(=O)N[C@@H](Cc1ccc(O)cc1)C(=O)N[C@@H](CCC(=O)O)C(=O)N1CCC[C@H]1C(=O)N[C@@H](Cc1ccccc1)C(=O)O)C(C)C)C(C)C [copper-64 labelled]; assay = dynamic PET; test system = mouse, CT26 tumour, untreated, tumour; setting = intravenous, 100 µCi/mouse, 110 s; endpoint = SUVmean; value = 1.04 SUV
SMILES = COc1nc(CC=C(C)CC=CC(C)=CC(C)C(OC2OC(CO)C(O)C(O)C2O)C(C)=CCO)c(C)c(O)c1OC (centres unmarked); test system = C57BL/6 mouse, plasma; setting = oral, 10 mg/kg; endpoint = MRT(0-t); value = 25 min
SMILES = CN1Cc2cc(Cl)ccc2-n2c(nnc2C2CCN(c3cccc(F)n3)CC2)C1; assay = mass spectrometry; test system = male Sprague-Dawley rat, brain; setting = intravenous, 0.03 mg/kg, 30 min; endpoint = concentration; value = 2.68 ng/mL
SMILES = CCCC[C@@H]1NC(=O)[C@H](Cc2ccc(O)cc2)NC(=O)[C@@H]2CCCN2C(=O)[C@H](CC(=O)O)NC(=O)[C@H](C)NC(=O)[C@H](Cc2ccccc2)NC(=O)[C@@H]2CSCCC(=O)N3CN(CN(C3)C(=O)CCSC[C@@H](C(=O)N[C@@H](C)C(N)=O)NC1=O)C(=O)CCSC[C@H](NC(C)=O)C(=O)N[C@@H](CC(C)(C)C)C(=O)N1CCC[C@H]1C(=O)N[C@@H](CCC(=O)O)C(=O)N[C@H](CCCCNC(=O)CCc1cn(CCOCCOCCOCCN(CCOCCOCCOCCC(=O)N[C@H]3CSCCC(=O)N4CN5CN(C4)C(=O)CCSC[C@H](NC(=O)[C@@H](CC(=O)O)NC(=O)[C@H](Cc4cccc6ccccc46)NC(=O)[C@@H]4CCCN4C3=O)C(=O)N[C@@H](CCSC)C(=O)N[C@@H](CCCCNC(=N)N)C(=O)N[C@@H](CC(=O)O)C(=O)N[C@@H](Cc3c[nH]c4ccccc34)C(=O)N[C@@H](CO)C(=O)N[C@@H]([C@@H](C)O)C(=O)N3CCC[C@H]3C(=O)N3C[C@H](O)C[C@H]3C(=O)N[C@@H](Cc3c[nH]c4ccccc34)C(=O)N[C@H](C(N)=O)CSCCC5=O)CCOCCOCCOCCn3cc(CCC(=O)NCCCC[C@H]4NC(=O)[C@H](CCC(=O)O)NC(=O)[C@@H]5CCCN5C(=O)[C@H](CC(C)(C)C)NC(=O)[C@@H](NC(C)=O)CSCCC(=O)N5CN6CN(C5)C(=O)CCSC[C@H](NC(=O)[C@H](Cc5ccc(O)cc5)NC(=O)[C@@H]5CCCN5C4=O)C(=O)N[C@@H](Cc4ccccc4)C(=O)N[C@@H](C)C(=O)N[C@@H](CC(=O)O)C(=O)N4CCC[C@H]4C(=O)N[C@@H](Cc4ccc(O)cc4)C(=O)N[C@@H](CCCC)C(=O)N[C@H](C(=O)N[C@@H](C)C(N)=O)CSCCC6=O)nn3)nn1)C(=O)N1CCC[C@H]1C(=O)N[C@@H](Cc1ccc(O)cc1)C(=O)N2; test system = Sprague-Dawley rat; endpoint = unbound Vdss; value = 7 L/kg
SMILES = CC(C)[C@H](NC(=O)[C@@H](NC(=O)[C@H](CCCNC(=N)N)NC(=O)[C@H](CCCNC(=N)N)NC(=O)[C@H](CCCNC(=N)N)NC(=O)[C@H](CCC(N)=O)NC(=O)[C@H](CCCNC(=N)N)NC(=O)[C@H](CCCNC(=N)N)NC(=O)[C@H](CCCCN)NC(=O)[C@H](CCCCN)NC(=O)[C@H](CCCNC(=N)N)NC(=O)CN)[C@@H](C)O)C(=O)N[C@H](C(=O)N[C@@H](CO)C(=O)N1CCC[C@H]1C(=O)O)[C@@H](C)O; test system = ICR mice, male, heart; setting = intranasal, 10 mg/kg daily, 4 weeks; endpoint = organ weight; value = 0.191 ± 0.03 g
SMILES = C(#Cc1cncc(OC[C@@H]2CCN2)c1)c1ccccc1; test system = male Sprague-Dawley rat, plasma; setting = oral, 75 mg/kg, 12 h; endpoint = concentration; value = 170 ng/mL

Some of these lines once more:
SMILES = CC(CCC(=O)NCC(=O)O)C1CCC2C3C(O)CC4CC(OC5OC(C(=O)O)C(O)C(O)C5O)CCC4(C)C3CCC12C (centres unmarked); test system = human women; setting = dose not given, SLCO1B1 *14/*14; endpoint = plasma concentration; value = 4.44 ng/mL
SMILES = CC[C@H](C)[C@H](NC(=O)[C@H](CCCCN)NC(=O)CNC(=O)[C@H](CC(C)C)NC(=O)[C@H](Cc1ccccc1)NC(=O)[C@H](CCCCN)NC(=O)[C@H](CO)NC(=O)[C@H](Cc1ccccc1)NC(=O)[C@H](Cc1c[nH]c2ccccc12)NC(=O)[C@H](CCC(N)=O)NC(=O)[C@@H](NC(=O)[C@H](Cc1ccccc1)NC(=O)CCCCCNC(=O)CN1CCN(CC(=O)O)CCN(CC(=O)O)CCN(CC(=O)O)CC1)C(C)C)C(=O)N[C@@H](CCC(=O)O)C(=O)N1CCC[C@H]1C(=O)N[C@@H](CC(=O)O)C(=O)N[C@H](C(=O)N[C@@H](CO)C(=O)N[C@@H](CCC(N)=O)C(=O)N[C@H](C(=O)N[C@@H](CCC(N)=O)C(=O)N[C@@H](CC(=O)O)C(=O)N1CCC[C@H]1C(=O)N[C@@H](CC(N)=O)C(=O)N[C@@H](CC(=O)O)C(=O)N[C@@H](CCC(N)=O)C(=O)N[C@@H](Cc1ccc(O)cc1)C(=O)N[C@@H](CCC(=O)O)C(=O)N1CCC[C@H]1C(=O)N[C@@H](Cc1ccccc1)C(=O)O)C(C)C)C(C)C [copper-64 labelled]; assay = dynamic PET; test system = mouse, CT26 tumour, untreated, tumour; setting = intravenous, 100 µCi/mouse, 110 s; endpoint = SUVmean; value = 1.04 SUV
